Measured values collected from several papers.
Parts stem from different laboratories: compare values within a part only. Substitutions count along the parent as printed.

Sample 1 — target: CCNA1, cyclin fold, Cln2 fusion (human); technique: yeast growth competition, sequencing; sample: yeast; notes: weak parent motif; reference: not given; reading: higher = stronger binding
Starting sequence: SCAPER docking peptide (human); SNARRSLNFGGST; partner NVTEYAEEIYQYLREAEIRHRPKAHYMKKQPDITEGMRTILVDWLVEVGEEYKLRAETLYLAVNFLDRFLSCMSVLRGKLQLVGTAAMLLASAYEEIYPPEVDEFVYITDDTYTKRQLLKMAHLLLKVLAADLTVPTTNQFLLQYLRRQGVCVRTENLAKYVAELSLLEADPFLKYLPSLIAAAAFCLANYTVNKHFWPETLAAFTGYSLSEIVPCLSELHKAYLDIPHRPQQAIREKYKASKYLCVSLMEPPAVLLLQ
Variant	normalised enrichment score
SNAPRSLNFGGST [R4P]	0.105
SWARRSLNFGGST [N2W]	0.532
SNARRSLNFGMST [G11M]	0.462
SNARRSLNFGGSN [T13N]	0.863
SNARRDLNFGGST [S6D]	0.456
DNARRSLNFGGST [S1D]	0.437
SNARRSLNTGGST [F9T]	0.321
SNACRSLNFGGST [R4C]	0.271
SNARLSLNFGGST [R5L]	0.315
SNARRFLNFGGST [S6F]	0.76
SNAHRSLNFGGST [R4H]	0.354
SNARRSLHFGGST [N8H]	0.624
SNARRSLNFSGST [G10S]	0.435
SNARRGLNFGGST [S6G]	0.621
SNARRSLNFWGST [G10W]	0.423
SNARRSLQFGGST [N8Q]	0.562
SNARRSLNFEGST [G10E]	0.742
SNFRRSLNFGGST [A3F]	0.312
SVARRSLNFGGST [N2V]	0.684
SNARRSLNFGGMT [S12M]	0.273
SNARWSLNFGGST [R5W]	0.115
SNVRRSLNFGGST [A3V]	0.337
ANARRSLNFGGST [S1A]	0.813
SNARRSLNFLGST [G10L]	0.366

Sample 2 — target: CRIPT, C-terminal peptide; technique: DHFR complementation, deep sequencing; sample: yeast; reference: wild type; reading: higher = weaker binding
Notes: single substitutions, model-inferred values
Starting sequence: ERBIN, PDZ domain 1 (human); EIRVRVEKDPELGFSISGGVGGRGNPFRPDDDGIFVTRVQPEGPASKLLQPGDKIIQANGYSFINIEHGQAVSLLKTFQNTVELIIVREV; partner TKNYKQTSV
Variant	binding free energy change [kcal/mol]
L84H	0.92
V4N	1.58
Q50G	0.0763
G24E	1.41
G19W	1.31
A45D	0.0612
V82T	0.173
P51T	0.268
K54C	0.188
T77L	0.249
V72R	1.61
F35E	0.515
G22F	0.597
E83I	0.202
R88T	0.316
N25E	1.06
N25H	0.957
A45G	0.362
Q50R	0.0625
S15C	0.353
A58Y	1.21
D53H	0.0039

Sample 3 — technique: RNA Bind-n-Seq; molecule type: RNA; sample: in vitro; tested at: 200 nM; notes: whole 134-nt RNA, ends assumed; together with: 150 mM LiCl; reference: input library; reading: higher = stronger binding; all molecules: 7-deaza-guanosine replaces G
Target: Fragile X messenger ribonucleoprotein 1, C-terminal low-complexity region (Fmr1, Mus musculus, UniProt P35922)
Sequence	log2 enrichment
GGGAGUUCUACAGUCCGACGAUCAGUCCUGUGCUACACAUCGUAUGUACCGAAUCAAACCCCCAAACCCCCAAACCCAAAAAAGUAUUAUGUUACGCCGUUCGGAUCUGCACUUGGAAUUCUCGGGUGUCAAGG	0.137
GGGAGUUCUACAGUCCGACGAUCGCAGGAAGUAAAAACAAAUGGAAAUGCUUCGGAUAGUGGCAGGGGUGGGGGUUGCUAAGGAAAGGGUGGGAUGGGAGUGGGCAAAGAGUUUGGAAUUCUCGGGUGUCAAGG	1.33
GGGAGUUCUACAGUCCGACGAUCUCAAGUCCUGUGCUACACAUCGUAUGUACCGAAUCGGGUUGGGGUUGGGGUUGGGAAAGUAUUAUGUUACGCCGUUCGGAUCUGCACUUCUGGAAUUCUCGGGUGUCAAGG	-1.13
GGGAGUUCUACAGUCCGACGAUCUGCCAUGGACAAUAUUACCAGGCAGAACCAAUUCUACGAUACCCAAGUCAUCAAACAAGAAAACGAGUCAGGCUACGAGAGGAGACCACUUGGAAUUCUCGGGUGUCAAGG	0.516
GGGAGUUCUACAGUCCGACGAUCGCAGGAAGUAAAAACAAAUGGAAAUGCUUCGGAUAGUGGCAGGGGUGGGGGUUGCUAAGGAAAGGGUGGGAUGGGAGUGGGUAAAGGGUUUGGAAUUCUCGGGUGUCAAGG	1.47
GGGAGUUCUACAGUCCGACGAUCCAAGUCCUGUGCUACACAUCGUAUGUACCGAAUCGGUUUGGGGUUUGGGUUUGGGAAAGUAUUAUGUUACGCCGUUCGGAUCUGCACUUCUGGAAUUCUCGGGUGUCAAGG	-1.27
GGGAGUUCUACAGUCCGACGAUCCACAGACAACACGCACCCACACAGACACAGAGGGAAGGGGUUGGGAUGGGGACAGGGUGCACAGCAGGGCGGGGUAGGAGCCCAGCCCCUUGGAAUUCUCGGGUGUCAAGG	1.18
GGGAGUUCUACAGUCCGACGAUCACCAUGCAGGUGGGCAUCUUUGGGAAGUGGGGCAAGGGGGGGAUAGGGAGGGGGGUAACACUUUGCGAACAGGUGGUCCCAGGUCGUUUCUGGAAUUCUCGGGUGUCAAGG	1.04
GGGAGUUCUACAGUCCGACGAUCAAGUCCUGUGCUACACAUCGUAUGUACCGAAUCGGAAAAAAAGGAAAAAGGUUUGGAAAGUAUUAUGUUACGCCGUUCGGAUCUGCACUUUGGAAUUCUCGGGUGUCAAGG	-3.2
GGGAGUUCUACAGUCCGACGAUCGCAGGAAGUAAAAACAAAUGGAAAUGCUUCGGAUAGUGGCAGGGGUGGGGCUUGCUAAGGAAAGGGUGGGAUGGGAGUGGGUAAAGAGUUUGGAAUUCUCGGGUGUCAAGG	0.889
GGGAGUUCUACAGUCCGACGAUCAAGUCCUGUGCUACACAUCGUAUGUACCGAAUCGGGCCCGGGCCCGGGGCCCGGGGAAAGUAUUAUGUUACGCCGUUCGGAUCUGCACUUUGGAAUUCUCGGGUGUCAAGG	-2.84

Sample 4 — target: MAFF, bZIP domain (human); technique: DHFR protein complementation; sample: yeast; reference: wild-type JUN-FOS pair; reading: higher = stronger binding
Notes: single substitutions, most at no-binding floor
Starting sequence: JUN, bZIP domain (human); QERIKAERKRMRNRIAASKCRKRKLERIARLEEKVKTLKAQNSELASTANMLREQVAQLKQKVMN; partner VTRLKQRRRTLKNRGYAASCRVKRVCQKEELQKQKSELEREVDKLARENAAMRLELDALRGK
Variant	binding fitness [natural log]
M51Q	-1.23
E54V	-1.41
A49F	-1.46
A40Q	-1.13
E54S	-1.47
M51P	-1.5
S43N	-1.46
L45H	-1.48
A29Q	-1.56
I28L	-1.4
A29Y	-1.44
K34T	-1.48

Sample 5 — technique: RNA Bind-n-Seq; molecule type: RNA; sample: in vitro; tested at: 365 nM; reference: no-protein control; reading: higher = stronger binding
Target: RNA binding protein fox-1 homolog 2, RRM domain, GST-SBP tag (RBFOX2, Homo sapiens, UniProt O43251-10, residues 100-194)
Notes: natural RNA segment, single round, ends assumed
Target sequence (chain): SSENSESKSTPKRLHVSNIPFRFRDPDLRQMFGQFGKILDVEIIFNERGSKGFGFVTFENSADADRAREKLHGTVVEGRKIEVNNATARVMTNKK
Sequence	RBNS enrichment (R)
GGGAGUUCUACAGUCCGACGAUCGGCAGCUGCUGACUCAACUCUGGGCUCCCUGCCAUCUGUGGAGUACUUUUUUCCUGUUGUGUUGAAUACUGGAGAAAUAGAAGGUUCAAGAUAGAGGCAGACCUGACUGUUGGAAUUCUCGGGUGCCAA	0.406
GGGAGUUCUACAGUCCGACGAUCCUCCGGCUUCUGAGACAGAGCAAGUACUUCAGCAGUCCUGCUGCUCUUGCUCUGAGCUACAAUCAUGGCUUCUCAUGUUACUUACCAAGUGAGAGUUUUGGUUAGUAAUCUGGAAUUCUCGGGUGCCAA	0.241
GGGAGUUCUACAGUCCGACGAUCGGCAUAAGCUGGACUUUGUCGCCACUAGAUGACAAGAUGGUAUACCUAAGCUAACCACACGUGUGUAUCUCAAGGGACUUAAAUUCAGCUGUCUGUAGUGAAUUCAAGUGUGGAAUUCUCGGGUGCCAA	0.328
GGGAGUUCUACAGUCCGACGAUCUGGAGGGGAAUCGGUUCAUCAAUUUUCACUUGCUUAAAAAAAAUACUUUUUCUUAAAGCACCCGUUCACCUUCUUGGUUGAAGUUGUGUUAACAAUGCAGUAGCCAGCACUGGAAUUCUCGGGUGCCAA	0.569
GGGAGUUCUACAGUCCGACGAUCCUGGCCCAGCUCUUAGCUUGUUCUGAGGGUUCUGCUGUGAGGUGAGGGCCCCAUCUCAGCAUCGUAGUUACAUAGUUGAUCUUAACUAAGCUUGGGAAUACGUCACCUGAUGGAAUUCUCGGGUGCCAA	0.323
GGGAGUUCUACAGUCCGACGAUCAGGCAUACAACCUAGAAAAUGUUAAUCACAUCACUGUUUCUUCUGUGGAAGCAAAGAGUUGUGGAGCGGUAGCCAUUUUAGUUACUGGGGUGGGAGGGAGGAACAAAGGAUGGAAUUCUCGGGUGCCAA	0.524
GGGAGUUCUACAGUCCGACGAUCUUAUUUUUGCACAAAUGACUCUUUUAUAUUUAAUUCGACUUCAUUGCCUCCCUUCUUAAAGCUAGCAGGCUCAGUUUACAAACCUGUGAGCUACUGUUGGCUGCUGCCCUUGGAAUUCUCGGGUGCCAA	0.579
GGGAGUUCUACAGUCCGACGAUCUGGUGCUGUUUGAAGUUACAUCCCUUCUCUUUGGAGGAUUUAAAAAUGAUCUAUCUUUUGGUCCACUUGCCUAAUUUUCCCAUUUUCCACCCCUGGCCCCCUACCCUUAGUGGAAUUCUCGGGUGCCAA	0.773
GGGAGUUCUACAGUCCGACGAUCAGGGAAAGGUGUUUGCUGGAGUGACUUCCGUGCAGAGUGGUCUAUAGAGAAACUACAGCUCUGCCCAUUGUCCUGGGGUCCUGGAACUUCGUCCAGUGUUAAGAACUGAGUGGAAUUCUCGGGUGCCAA	0.825
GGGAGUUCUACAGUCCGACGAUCUUUAGGAAUUGGGUCUUUUGUCCAAGUGACUUCGGUCUUAAGAAGAAAUAGUGUUGGGAGGGAACCUGUCUAGUAACAGAGCUAGCAAAUGUCCAGGCUGGUGAAGAUCCUGGAAUUCUCGGGUGCCAA	0.535
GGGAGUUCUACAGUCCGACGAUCUGGCAUUUGGGGUGACAUCUCAAAGGCCAGGAAUUCCGUUGACUUGUUGGCUGCCAGUAGGGGCGGGAGGAAAGGCGGAGGCGAGCCCUGGAGGAGGGAGGCCACAACUCUGGAAUUCUCGGGUGCCAA	0.532
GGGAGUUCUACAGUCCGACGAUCGGCAGGAGUCAGGAGCCAGGGACUGUGCAGCCUGGAACCUCCAGUCACUGUGCCCAGCAGGGUGGGCUGUGCCCAGCAGGAGUCAGGCUAAGAAACGCCAGGUCUGCCUGUGGAAUUCUCGGGUGCCAA	0.685

Sample 6 — technique: DHFR PCA, deep sequencing; sample: yeast; together with: (+)-ABA 0.0091 µM; reference: wild-type fitted maximum; reading: higher = stronger binding
Target: ABI1, truncated, D143A, DHFR fusion (Arabidopsis thaliana)
Notes: methotrexate growth selection, single substitutions
Starting sequence: PYL1, truncated, DHFR fusion (Arabidopsis thaliana); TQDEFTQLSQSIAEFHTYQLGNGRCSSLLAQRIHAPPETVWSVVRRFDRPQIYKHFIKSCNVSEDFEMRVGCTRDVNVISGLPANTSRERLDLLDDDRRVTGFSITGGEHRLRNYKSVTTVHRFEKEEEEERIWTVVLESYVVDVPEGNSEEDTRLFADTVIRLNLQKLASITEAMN; partner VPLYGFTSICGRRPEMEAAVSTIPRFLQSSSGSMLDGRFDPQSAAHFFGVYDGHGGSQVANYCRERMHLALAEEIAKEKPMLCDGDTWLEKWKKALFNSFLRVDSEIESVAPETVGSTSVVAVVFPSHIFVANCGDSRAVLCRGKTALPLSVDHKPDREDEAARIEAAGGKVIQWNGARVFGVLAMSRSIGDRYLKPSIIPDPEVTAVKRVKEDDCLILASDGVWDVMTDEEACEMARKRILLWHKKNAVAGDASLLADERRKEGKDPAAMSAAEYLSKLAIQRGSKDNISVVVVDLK
Variant	relative binding score [%]
I105P	-0.553
D92T	1.47
G81V	6.73
R132N	34.7
D92W	-5.11
P36L	5.89
S27D	-0.51
K54F	3.66
F15D	-3.64
E67N	8.06
R45I	-5.17

Mixed results
Substance	target	test	system	conditions	scale	endpoint	result
PhoQ, residues 284 288 289 292 302 303 ASHLAV	PhoP, residues 12 14 15 18 19 TPLRH (Escherichia coli, UniProt P23836)	Sort-seq, measured: YFP reporter	E. coli	PhoQ-PhoP variant library, together with: 10 µM Mg2+	reference: high Mg2+ state, higher = stronger signaling	fold induction	0.218
